Measurements collected from several papers.
Lines come from different studies, so protocols differ. Numbers after ± are the reported error.

| Compound | method | matrix | time | pH | temperature | setting | solubility |
| --- | --- | --- | --- | --- | --- | --- | --- |
| c1ccc(CSc2ncnc3nc[nH]c23)cc1 | UV absorbance | culture medium | – | – | – | stock diluted to 0.10 mM | 88 µM |
| N=C(N)NC(=O)c1nc(Cl)c(NCc2cc(Cl)cc(Cl)c2)nc1N | – | aqueous buffer | – | pH 7.4 | – | – | < 1.01 µg/mL |
| O=C(Nc1ccc(OC(F)(F)F)cc1)N[C@H]1CC[C@H](Oc2ccc(C(=O)O)cc2)CC1 | – | deionised water | 10 min | pH 6.6 | 37 °C | non-sink dissolution | 0.349 ± 0.0087 µg/mL |
| CN(C)CCNS(=O)(=O)c1ccc(N/C=C2\C(=O)Nc3ccccc32)cc1 | – | aqueous buffer | – | pH 7.4 | – | – | 6.46 µg/mL |
| Clc1nc(SCc2ccccc2)c2[nH]cnc2n1 | UV absorbance | culture medium | – | – | – | stock diluted to 0.20 mM | 40 µM |
| O=C1CCC(N2Cc3cc(NC(=O)C4=Cc5cc(Br)cc(Br)c5OC4)ccc3C2=O)C(=O)N1 (stereo not drawn) | – | DMSO | – | – | – | – | ≤ 25000 µM |
| FC(F)(F)c1ccc([C@H]2COC[C@@H](C3CCCCC3)N2)cc1 | shake-flask, LC-HRMS | aqueous buffer | 16 h | pH 6.8 | – | – | < 4 µM |
| COc1ccc(NC(=O)CCSc2nnc3scc(-c4ccc(C)cc4)n23)cc1 | – | aqueous buffer | – | pH 7.4 | – | – | < 3.03 µg/mL |
| O=C(Nc1ccccc1)C1(C(F)(F)F)CC1 | – | PBS | 2 h | pH 7.4 | 25 °C | – | 369 µM |
| CC#Cc1cncc(-c2ccc3c(c2)[C@@]2(N=C(C)C(N)=N2)[C@]2(CC[C@H](OC)CC2)C3)c1 | dried-DMSO method | – | – | – | – | – | 35.3 µM |
| CCCCCCCCCCCCCCCC(=O)NCCOC(=O)C[C@@H](CN)CC(C)C | – | acetate buffer | 12 h | pH 4.5 | 37 °C | – | 3630 µg/mL |
| CC(C)(C)c1nc(-c2cccc(N(Cc3cc(C(=O)[O-])ccc3OP(=O)([O-])[O-])S(=O)(=O)c3c(F)cccc3F)c2F)c(-c2ccnc(N)n2)s1.[Na+].[Na+].[Na+] | HPLC, saturated solution | HBSS | 30 s | pH 6.5 | – | – | > 49000 µg/mL |
| Cn1cncc1[C@@](N)(c1ccc(Cl)cc1)c1ccc2c(c1)c(-c1cccc(Cl)c1)cc(=O)n2C | – | acetate buffer | – | pH 4.5 | 25 °C | final pH 4.35 | 32 ± 0.2 µg/mL |
| CC1CCN(S(=O)(=O)c2ccc(Cl)c(C(=O)Nc3ccc(C(=O)O)cc3)c2)CC1 | – | aqueous buffer | – | pH 7.4 | – | – | 563 µg/mL |
| CCOC(=O)N1C[C@@H]([C@H]2CCOC2)N[C@@H](C2CCOCC2)C1 | shake-flask, LC-HRMS | aqueous buffer | 16 h | pH 6.8 | – | – | > 750 µM |
| O=S(=O)(c1ccc(-c2ccc3nccc(Nc4ccnnc4)c3c2)cc1)N1CCOCC1 | thermodynamic | aqueous medium | – | – | – | – | 661 µM |
| Cc1cc(/C=C/C#N)cc(C)c1Nc1ccnc(Nc2ccc(C#N)cc2)n1 | – | Peceol | 24 h | – | 37 °C | – | 430 ± 30 µg/mL |
| CONc1ccnc(Nc2cccc(-c3cccnc3)c2)n1 | – | citrate phosphate-buffered saline | 18 h | pH 7.4 | – | 1% DMSO | 57.7 ± 0.8 µM |
| CC(=O)[C@H]1CC[C@H]2[C@@H]3CCC4=CC(=O)CC[C@]4(C)[C@H]3CC[C@]12C | – | PBS | 2 h | pH 7.4 | – | – | 17.9 µM |
| COC(=O)c1cccc(-c2cccc(Nc3nccc(NC4CCCCC4)n3)c2)c1 | – | citrate phosphate-buffered saline | 18 h | pH 7.4 | – | 1% DMSO | 0.4 ± 1.8 µM |
| CCCSc1ccc2nc(NC(=O)OC)[nH]c2c1 | LC-MS | DPBS | 18 h | – | – | – | 1.9 µM |
| COC1=CC(c2ccc[nH]2)=N/C1=C\c1[nH]c(C)cc1Cc1ccc(OC(F)(F)F)cc1.Cl | – | potassium phosphate buffer | 1.5 h | pH 7.4 | room temperature | – | < 3.13 µM |
| O=C(Nc1cccc2[nH]ccc12)c1ccc(F)cc1 | kinetic solubility | PBS with NaCl, SDS, ThT | – | pH 7.4 | – | – | ≥ 300 µM |
| CN(Cc1ccc(C(C)(C)C)cc1)Cc1cccc2ccccc12 | – | PBS | 2 h | pH 7.4 | 25 °C | – | 10 µM |
| CN1CCN(C(=O)c2ccccc2N(Cc2ccccc2)S(C)(=O)=O)CC1 | – | aqueous buffer | – | pH 7.4 | – | – | 1540 µg/mL |
| CCc1n(Cc2ccc3ccccc3n2)cc[n+]1Cc1ccc2ccccc2c1.[Br-] | – | aqueous 2-hydroxypropyl-β-cyclodextrin | – | – | – | – | > 10000 µM |

| Compound | method | matrix | time | pH | temperature | setting | solubility |
| --- | --- | --- | --- | --- | --- | --- | --- |
| Brc1cccc([C@H]2COC[C@H](C3CCCCC3)N2)c1 | shake-flask, LC-HRMS | aqueous buffer | 16 h | pH 6.8 | – | – | < 4 µM |
| CCOC(=O)c1cnc(Nc2nc3ccccc3o2)nc1CN1CCN(c2ccccc2)CC1 | – | aqueous buffer | – | pH 7.4 | – | – | < 1.64 µg/mL |
| CNc1ccnc(Nc2cccc(-c3cccnc3)c2)n1 | – | citrate phosphate-buffered saline | 18 h | pH 7.4 | – | 1% DMSO | 57.9 ± 2.2 µM |
| CC(=O)Nc1ccc(Nc2ncnc(N[C@@H](CC(C)C)C(=O)O)n2)cc1 | – | – | 3 (unit not given) | – | – | – | > 200 µM |
| CC(=O)N=S(=O)(O)c1ccc(N/C=C2\C(=O)Nc3ccc4ncsc4c32)cc1 | – | aqueous buffer | – | pH 7.4 | – | – | 30.5 µg/mL |
| Cc1nnc(Nc2ccnc3ccc(-c4ccc(S(=O)(=O)N5CCOCC5)cc4)cc23)nc1C | thermodynamic | aqueous medium | – | – | – | – | 2 µM |
| COc1cc(OC)c2c(=O)c(OC)c(-c3ccccc3)oc2c1 | HPLC | ethanol:butylene glycol 50:50 | – | – | – | – | 2392 ± 15 ppm |
| O=C(Cc1ccccc1[N+](=O)[O-])Nc1ccccc1C(=O)N1CCOCC1 | – | aqueous buffer | – | pH 7.4 | – | – | 36.5 µg/mL |
| Cc1cnc(Nc2ccnc3ccc(-c4ccc(S(=O)(=O)N5CCOCC5)cc4)cc23)s1 | thermodynamic | aqueous medium | – | – | – | – | 21 µM |
| CCCS(=O)(=O)Nc1ccc(F)c(C(=O)c2cn(C(=O)OCc3cc(P(=O)(O)O)ccc3OP(=O)(O)O)c3ncc(-c4ccc(Cl)cc4)cc23)c1F | HPLC, saturated solution | simulated gastric fluid | 30 s | pH 1.2 | – | – | 660 µg/mL |
| CCCNc1ccnc(Nc2cccc(-c3cccnc3)c2)n1 | – | citrate phosphate-buffered saline | 18 h | pH 7.4 | – | 1% DMSO | 29.4 ± 1.5 µM |
| Nc1nc2c(ncn2COCCO)c(=O)[nH]1 | – | methanol + water | 24 h | – | 298.2 K | methanol mass fraction 0.7 | 1770 µg/mL |
| CCOC(=O)N1C[C@@H](c2ccc(O)cc2)N[C@@H](C2CCOCC2)C1 | shake-flask, LC-HRMS | aqueous buffer | 16 h | pH 6.8 | – | – | > 750 µM |
| O=S(=O)(c1ccc(-c2ccc3nccc(Nc4cnccn4)c3c2)cc1)N1CCOCC1 | thermodynamic | aqueous medium | – | – | – | – | 1 µM |
| Cc1[nH]c(/C=C2\N=C(c3ccc[nH]3)C=C2OCc2ccccc2)cc1Cc1ccc(OC(F)(F)F)cc1 | – | potassium phosphate buffer | 1.5 h | pH 7.4 | room temperature | – | 7.49 µM |
| N=C(CCl)NCCC[C@H](NC(=O)c1ccc2cc(O)ccc2c1)C(=O)NCc1ccccc1 | – | water | – | – | – | – | > 20000 µg/mL |
| COc1cc(OC)c2c(=O)c(OC)c(-c3ccc(OC)c(OC)c3)oc2c1 | HPLC | ethanol:butylene glycol 25:75 | – | – | – | – | 12850 ± 20 ppm |
| COc1cccc([C@@H]2COC[C@]3(CCOC3)N2)c1 | shake-flask, LC-HRMS | aqueous buffer | 16 h | pH 6.8 | – | – | > 750 µM |
| COc1ccc(-c2cc(=O)c3c(OC)cc(OC)cc3o2)cc1 | HPLC | ethanol:butylene glycol 75:25 | – | – | – | – | 12830 ± 50 ppm |
| Cn1nc2ccccc2c1[C@H]1COC(C)(C)[C@@H](c2ccc(-c3ccccc3)cc2)N1 | shake-flask, LC-HRMS | aqueous buffer | 16 h | pH 6.8 | – | – | < 4 µM |
| CC(C)Nc1ccnc(Nc2cccc(-c3cc[nH]n3)c2)n1 | – | citrate phosphate-buffered saline | 18 h | pH 7.4 | – | 1% DMSO | 66.7 ± 2 µM |
| Cn1cc([C@@H]2COC[C@](C)(c3ccccc3)N2)cn1 | shake-flask, LC-HRMS | aqueous buffer | 16 h | pH 6.8 | – | – | > 750 µM |
| COC1=C(OC)/C(=C/c2[nH]c(Cc3ccc(OC(F)(F)F)cc3)cc2Cc2ccc(OC(F)(F)F)cc2)N=C1c1ccc[nH]1.Cl | – | potassium phosphate buffer | 1.5 h | pH 7.4 | room temperature | – | 32.7 µM |
| CC(C)(C)c1ccc(CN2CCN(C(c3ccccc3)c3ccc(Cl)cc3)CC2)cc1 (stereo not drawn) | – | PBS | – | pH 7.4 | 25 °C | 2% DMSO | 3 µM |
| CCOC(=O)N1C[C@@H](c2ccc(C)nc2)N[C@@H](C2CCOCC2)C1 | shake-flask, LC-HRMS | aqueous buffer | 16 h | pH 6.8 | – | – | > 750 µM |

Repeated from above:
| Compound | method | matrix | time | pH | temperature | setting | solubility |
| --- | --- | --- | --- | --- | --- | --- | --- |
| COc1ccc(-c2cc(=O)c3c(OC)cc(OC)cc3o2)cc1 | HPLC | ethanol:butylene glycol 75:25 | – | – | – | – | 12830 ± 50 ppm |
| O=S(=O)(c1ccc(-c2ccc3nccc(Nc4cnccn4)c3c2)cc1)N1CCOCC1 | thermodynamic | aqueous medium | – | – | – | – | 1 µM |
| Cc1cnc(Nc2ccnc3ccc(-c4ccc(S(=O)(=O)N5CCOCC5)cc4)cc23)s1 | thermodynamic | aqueous medium | – | – | – | – | 21 µM |
| CC(=O)N=S(=O)(O)c1ccc(N/C=C2\C(=O)Nc3ccc4ncsc4c32)cc1 | – | aqueous buffer | – | pH 7.4 | – | – | 30.5 µg/mL |
| O=C1CCC(N2Cc3cc(NC(=O)C4=Cc5cc(Br)cc(Br)c5OC4)ccc3C2=O)C(=O)N1 (stereo not drawn) | – | DMSO | – | – | – | – | ≤ 25000 µM |
| COc1ccc(NC(=O)CCSc2nnc3scc(-c4ccc(C)cc4)n23)cc1 | – | aqueous buffer | – | pH 7.4 | – | – | < 3.03 µg/mL |
| O=S(=O)(c1ccc(-c2ccc3nccc(Nc4ccnnc4)c3c2)cc1)N1CCOCC1 | thermodynamic | aqueous medium | – | – | – | – | 661 µM |
| O=C(Nc1ccc(OC(F)(F)F)cc1)N[C@H]1CC[C@H](Oc2ccc(C(=O)O)cc2)CC1 | – | deionised water | 10 min | pH 6.6 | 37 °C | non-sink dissolution | 0.349 ± 0.0087 µg/mL |
